# Published values collected from several papers.
# Protocols differ between the studies behind these lines. ± gives the spread as reported.
# UniProt Q9NRM7, sequence (whole entry, looked up): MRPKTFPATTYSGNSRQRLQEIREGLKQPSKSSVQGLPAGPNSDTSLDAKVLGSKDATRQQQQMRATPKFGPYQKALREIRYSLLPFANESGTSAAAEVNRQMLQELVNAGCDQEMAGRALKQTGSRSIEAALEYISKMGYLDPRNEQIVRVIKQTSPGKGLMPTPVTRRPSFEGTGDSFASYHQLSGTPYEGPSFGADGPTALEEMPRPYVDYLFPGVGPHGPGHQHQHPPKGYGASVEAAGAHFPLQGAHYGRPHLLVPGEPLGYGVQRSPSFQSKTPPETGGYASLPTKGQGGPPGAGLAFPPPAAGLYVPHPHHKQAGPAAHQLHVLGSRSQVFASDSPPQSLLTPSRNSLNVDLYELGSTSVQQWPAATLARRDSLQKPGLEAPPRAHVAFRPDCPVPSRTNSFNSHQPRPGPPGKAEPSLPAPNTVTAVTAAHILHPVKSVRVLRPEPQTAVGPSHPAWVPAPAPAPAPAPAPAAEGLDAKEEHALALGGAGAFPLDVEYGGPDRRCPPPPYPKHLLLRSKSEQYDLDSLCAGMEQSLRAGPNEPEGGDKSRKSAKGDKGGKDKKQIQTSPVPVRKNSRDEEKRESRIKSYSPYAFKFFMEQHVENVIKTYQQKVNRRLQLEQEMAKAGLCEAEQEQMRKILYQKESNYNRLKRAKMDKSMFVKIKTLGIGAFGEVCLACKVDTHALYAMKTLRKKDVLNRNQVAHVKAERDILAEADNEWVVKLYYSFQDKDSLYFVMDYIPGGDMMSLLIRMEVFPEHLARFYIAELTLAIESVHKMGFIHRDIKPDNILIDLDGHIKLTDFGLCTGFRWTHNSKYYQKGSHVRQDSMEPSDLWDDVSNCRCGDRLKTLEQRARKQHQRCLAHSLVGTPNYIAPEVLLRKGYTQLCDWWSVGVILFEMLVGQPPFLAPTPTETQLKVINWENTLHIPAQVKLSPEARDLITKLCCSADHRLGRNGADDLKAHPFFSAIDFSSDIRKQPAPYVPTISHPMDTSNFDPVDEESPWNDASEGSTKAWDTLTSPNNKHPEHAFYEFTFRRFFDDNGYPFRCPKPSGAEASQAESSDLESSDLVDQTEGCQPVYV
# UniProt P09960, sequence (whole entry, looked up): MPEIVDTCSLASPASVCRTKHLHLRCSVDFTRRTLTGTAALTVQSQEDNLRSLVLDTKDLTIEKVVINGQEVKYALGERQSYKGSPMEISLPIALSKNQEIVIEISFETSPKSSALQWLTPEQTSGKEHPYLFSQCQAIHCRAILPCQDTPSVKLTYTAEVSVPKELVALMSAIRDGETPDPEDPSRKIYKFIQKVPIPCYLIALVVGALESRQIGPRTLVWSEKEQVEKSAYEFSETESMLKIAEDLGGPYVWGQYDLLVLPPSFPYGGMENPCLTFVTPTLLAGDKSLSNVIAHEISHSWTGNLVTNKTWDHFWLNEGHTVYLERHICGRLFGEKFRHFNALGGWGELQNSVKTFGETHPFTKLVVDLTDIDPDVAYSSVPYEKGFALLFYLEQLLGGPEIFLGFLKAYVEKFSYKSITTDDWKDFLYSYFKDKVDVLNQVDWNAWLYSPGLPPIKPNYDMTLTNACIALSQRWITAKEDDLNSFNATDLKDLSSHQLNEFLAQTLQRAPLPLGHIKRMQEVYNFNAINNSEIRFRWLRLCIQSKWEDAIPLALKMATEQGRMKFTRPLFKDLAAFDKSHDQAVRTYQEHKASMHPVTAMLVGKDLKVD
# UniProt P32248, sequence (whole entry, looked up): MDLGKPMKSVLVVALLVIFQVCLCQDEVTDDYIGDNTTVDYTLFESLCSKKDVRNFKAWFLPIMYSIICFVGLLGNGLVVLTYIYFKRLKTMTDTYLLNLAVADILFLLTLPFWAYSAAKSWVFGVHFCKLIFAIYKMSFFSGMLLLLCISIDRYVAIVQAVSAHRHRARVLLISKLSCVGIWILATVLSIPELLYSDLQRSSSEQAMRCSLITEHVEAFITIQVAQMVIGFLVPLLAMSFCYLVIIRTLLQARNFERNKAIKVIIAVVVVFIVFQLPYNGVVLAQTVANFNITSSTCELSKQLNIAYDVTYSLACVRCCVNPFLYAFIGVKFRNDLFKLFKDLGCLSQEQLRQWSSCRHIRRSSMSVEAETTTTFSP
# UniProt P00940, sequence (whole entry, unmodified, looked up): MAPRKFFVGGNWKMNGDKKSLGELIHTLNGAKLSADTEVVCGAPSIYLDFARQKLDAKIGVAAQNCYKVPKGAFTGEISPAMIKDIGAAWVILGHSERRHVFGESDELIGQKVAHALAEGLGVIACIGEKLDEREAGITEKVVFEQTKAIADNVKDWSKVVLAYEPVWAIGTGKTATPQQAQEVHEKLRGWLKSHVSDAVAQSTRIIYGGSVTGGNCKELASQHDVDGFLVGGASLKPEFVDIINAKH
# UniProt Q05397, sequence (whole entry, looked up): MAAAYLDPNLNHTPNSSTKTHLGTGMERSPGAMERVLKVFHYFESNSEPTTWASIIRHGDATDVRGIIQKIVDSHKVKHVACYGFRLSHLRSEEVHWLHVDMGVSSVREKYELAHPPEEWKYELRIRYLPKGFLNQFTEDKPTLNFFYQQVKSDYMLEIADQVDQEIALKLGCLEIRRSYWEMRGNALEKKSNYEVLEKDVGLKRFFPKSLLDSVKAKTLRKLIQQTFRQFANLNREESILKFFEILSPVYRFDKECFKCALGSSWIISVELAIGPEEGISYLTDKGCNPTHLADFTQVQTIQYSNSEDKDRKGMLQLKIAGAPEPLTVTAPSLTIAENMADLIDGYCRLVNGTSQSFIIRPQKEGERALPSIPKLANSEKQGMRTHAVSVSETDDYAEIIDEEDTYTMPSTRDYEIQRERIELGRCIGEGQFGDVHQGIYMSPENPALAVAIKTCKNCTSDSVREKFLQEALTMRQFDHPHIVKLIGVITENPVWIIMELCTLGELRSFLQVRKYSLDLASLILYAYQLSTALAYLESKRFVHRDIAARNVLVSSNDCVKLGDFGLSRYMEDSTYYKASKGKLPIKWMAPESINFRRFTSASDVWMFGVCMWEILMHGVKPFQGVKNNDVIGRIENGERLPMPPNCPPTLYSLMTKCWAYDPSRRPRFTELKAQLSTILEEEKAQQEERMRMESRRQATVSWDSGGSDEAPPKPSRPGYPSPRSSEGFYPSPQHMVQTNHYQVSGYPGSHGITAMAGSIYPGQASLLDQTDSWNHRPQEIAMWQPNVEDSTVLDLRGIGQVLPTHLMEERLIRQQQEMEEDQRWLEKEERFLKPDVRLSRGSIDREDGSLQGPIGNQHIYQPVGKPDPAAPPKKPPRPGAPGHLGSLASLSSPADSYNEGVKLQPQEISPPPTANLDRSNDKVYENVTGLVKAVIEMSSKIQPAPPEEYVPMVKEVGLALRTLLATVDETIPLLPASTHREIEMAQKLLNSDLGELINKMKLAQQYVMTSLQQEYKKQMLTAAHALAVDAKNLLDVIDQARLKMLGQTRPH
# UniProt Q63HM1, sequence (whole entry, looked up): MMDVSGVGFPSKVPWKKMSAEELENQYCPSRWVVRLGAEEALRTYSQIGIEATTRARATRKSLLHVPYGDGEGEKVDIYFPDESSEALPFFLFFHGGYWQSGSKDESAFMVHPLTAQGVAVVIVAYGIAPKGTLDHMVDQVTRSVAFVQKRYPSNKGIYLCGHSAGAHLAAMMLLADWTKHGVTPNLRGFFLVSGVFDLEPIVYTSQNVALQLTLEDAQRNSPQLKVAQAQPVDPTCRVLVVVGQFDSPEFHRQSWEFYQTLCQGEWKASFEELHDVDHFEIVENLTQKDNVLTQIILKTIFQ
# UniProt P42262, sequence (whole entry, looked up): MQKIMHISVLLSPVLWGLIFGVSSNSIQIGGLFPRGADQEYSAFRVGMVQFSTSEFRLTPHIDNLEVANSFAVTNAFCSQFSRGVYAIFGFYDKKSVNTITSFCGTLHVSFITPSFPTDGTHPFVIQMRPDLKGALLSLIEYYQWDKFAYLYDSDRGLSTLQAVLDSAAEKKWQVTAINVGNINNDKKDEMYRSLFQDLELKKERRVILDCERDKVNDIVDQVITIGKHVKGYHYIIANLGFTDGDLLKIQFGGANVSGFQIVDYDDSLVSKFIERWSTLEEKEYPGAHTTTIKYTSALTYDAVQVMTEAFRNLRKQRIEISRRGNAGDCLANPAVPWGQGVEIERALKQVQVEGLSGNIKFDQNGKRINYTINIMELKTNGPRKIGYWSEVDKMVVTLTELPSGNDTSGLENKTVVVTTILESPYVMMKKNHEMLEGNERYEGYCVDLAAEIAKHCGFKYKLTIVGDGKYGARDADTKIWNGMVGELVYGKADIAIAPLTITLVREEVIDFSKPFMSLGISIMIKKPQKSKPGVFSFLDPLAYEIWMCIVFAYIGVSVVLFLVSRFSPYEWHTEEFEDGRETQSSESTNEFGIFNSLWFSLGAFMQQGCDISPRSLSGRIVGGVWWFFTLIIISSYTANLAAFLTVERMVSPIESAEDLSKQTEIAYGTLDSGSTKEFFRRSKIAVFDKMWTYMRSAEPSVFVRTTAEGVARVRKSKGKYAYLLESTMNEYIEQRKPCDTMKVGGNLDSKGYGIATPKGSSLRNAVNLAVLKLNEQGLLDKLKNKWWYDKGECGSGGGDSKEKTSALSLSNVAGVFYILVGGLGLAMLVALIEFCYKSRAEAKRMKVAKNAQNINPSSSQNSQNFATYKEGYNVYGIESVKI
Compound,target or system,assay,test system,setting,how to read,quantity,result
[2H]c1c([2H])c([C@]2([2H])CCCN2C(=O)C(C)(C)Oc2ccc3cn[nH]c3c2)c([2H])c([2H])c1C([2H])([2H])[2H],"LATS2 (Homo sapiens, UniProt Q9NRM7)",KINOMEscan,,1 µM,reference: DMSO control,remaining binding,88%
Nc1ncnc2c1ncn2[C@@H]1O[C@H](COP(=O)(O)OP(=O)(O)NP(=O)(O)O)[C@@H](O)[C@H]1O,"Cell cycle histidine kinase CckA, cytoplasmic region (Caulobacter vibrioides, UniProt Q9X688)",ITC,,without c-di-GMP,,ΔH,-1.37 ± 0.0914 kcal/mol
CC1(C)C(C=C(Cl)Cl)C1C(=O)OCc1cccc(Oc2ccccc2)c1 (stereo not shown),"uncharacterized protein (Anopheles coluzzii, UniProt A0A6E8VQK1)","enzyme activity, inhibitor",Sf9 cell homogenate,"49.36 µM, 0.1667 h, added: α-naphthyl acetate substrate",reference: no inhibitor,remaining activity,97.9%
C[C@H]1CN(c2n[nH]c3nc(N[C@H]4CC[C@H](NS(=O)(=O)CCC(F)(F)F)CC4)ncc23)CCO1,"UBR4 (Homo sapiens, UniProt Q5T4S7)","inhibitor, Kinobeads competition profiling",,0.032 µM,reference: vehicle,relative abundance,1
Nc1ccncc1,"Glutamate receptor 2 (Homo sapiens, UniProt P42262)","ion current, agonist, automated patch clamp",HEK293,30 µM,,activation,3%
COc1ccc(N2C(=O)N(c3c(C)cccc3Cl)Cc3cnc(Nc4ccc(C5CCN(C)CC5)cc4OC)nc32)nc1,"PTK2 (Homo sapiens, UniProt Q05397)","kinase activity, inhibitor",,"0.5 µM, kinase FAK",,inhibition,17%
COc1cc2c(Oc3ccc4[nH]c(C)cc4c3F)ccnc2cc1OCC1(N)CC1,,,paediatric refractory sarcoma patients,12 mg,,QTc prolongation incidence,9.1%
CC[C@H](C)[C@@H]1NC(=O)[C@@H]2CCCN2C(=O)[C@H](CC(C)C)NC(=O)[C@H](CC(C)C)NC(=O)CNC(=O)[C@@H](NC(=O)[C@@H](NC(=O)[C@H](CC(=O)O)NC(=O)CNC(=O)[C@@H](NC(=O)[C@H](C)NC(=O)CNC(=O)[C@H](CCCCN)NC(=O)[C@H](CC(C)C)NC(=O)[C@H](CC(C)C)NC(=O)[C@H](CCCCN)NC(=O)CNC(=O)[C@@H](NC(=O)[C@@H](N)CC(C)C)C(C)C)C(C)C)C(C)C)CSSC[C@@H](C(=O)O)NC1=O,,"RNA-seq, refers to: Gm13889 mRNA","mouse traumatic brain injury, frontal cortex and hippocampus",dose not given,reference: TBI plus compound vs TBI,log2 fold change,-1.41
O=C(c1ccc(Cl)cc1)N1CCN2C(=O)N(OC(=O)N3CCOc4ccccc43)C(=O)C2C1 (stereo not shown),"Kynurenine formamidase (AFMID, Homo sapiens, UniProt Q63HM1)",MS-based ABPP,SW-620 conditioned medium,"10 µM, 1 h, 37 °C","reference: compound over DMSO, lower = more inhibition",median protein ratio,1.27
CN1CCN(c2cc(-c3ccncc3)c(-c3ccc4ccccc4c3)nn2)CC1,"CCR7 (Homo sapiens, UniProt P32248)","agonist, FLIPR calcium",,12.5 µM,,activation,0.5%
O=C(O)COP(=O)(O)O,"Triosephosphate isomerase (TPI1, Gallus gallus, UniProt P00940, G210A/S211G/Y208T)","enzyme activity, competitive inhibitor, GPDH/NADH-coupled",,"pH 7.0, 25 °C, ionic strength 0.1 NaCl, added: glyceraldehyde 3-phosphate substrate",reference: mutant over wild type,Ki ratio,370
CC[C@H](C)[C@H](NC(=O)[C@H](Cc1ccccc1)NC(=O)[C@H](CCC(=O)O)NC(=O)[C@H](CCCNC(=N)N)NC(=O)[C@H](C)NC(=O)[C@H](C)NC(=O)[C@H](CCC(N)=O)NC(=O)[C@H](CCC(=O)O)NC(=O)[C@H](CCC(=O)O)NC(=O)[C@H](CC(C)C)NC(=O)[C@H](Cc1ccc(O)cc1)NC(=O)[C@H](CO)NC(=O)[C@H](CO)NC(=O)[C@@H](NC(=O)[C@H](CC(=O)O)NC(=O)[C@H](CO)NC(=O)[C@@H](NC(=O)[C@H](Cc1ccccc1)NC(=O)[C@@H](NC(=O)CNC(=O)[C@H](CCC(=O)O)NC(=O)[C@H](C)NC(=O)CCc1c[nH]cn1)[C@@H](C)O)[C@@H](C)O)C(C)C)C(=O)N[C@@H](C)C(=O)N[C@@H](Cc1c[nH]c2ccccc12)C(=O)N[C@@H](CC(C)C)C(=O)N[C@H](C(=O)N[C@@H](CCCNC(=N)N)C(=O)NCC(=O)N[C@@H](CCCNC(=N)N)C(=O)N[C@@H](CCCCNC(=O)COCCOCCNC(=O)COCCOCCNC(=O)CC[C@H](NC(=O)CCCCCCCCCCCCCCCCC(=O)O)C(=O)O)C(=O)NCC(=O)NCC(=O)N[C@@H](CO)C(=O)N[C@@H](CCCCNc1c(NCCCCCN(O)C(=O)CCC(=O)NCCCCCN(O)C(=O)CCC(=O)NCCCCCN(O)C(C)=O)c(=O)c1=O)C(=O)O)C(C)C [zirconium-89 labelled],,,"rat, heart","iv, 3 nmol/kg, 4 h, ex vivo",,tissue uptake,0.47 %ID/g
COc1cc(Nc2ncc(F)c(Nc3ccc4c(n3)NC(=O)C(C)(C)O4)n2)cc(OC)c1OC,"LTA4H (Homo sapiens, UniProt P09960)",,,,,IC50,> 10 µM

# Excerpt of the above:
Compound,target or system,assay,test system,setting,how to read,quantity,result
COc1cc2c(Oc3ccc4[nH]c(C)cc4c3F)ccnc2cc1OCC1(N)CC1,,,paediatric refractory sarcoma patients,12 mg,,QTc prolongation incidence,9.1%
CC[C@H](C)[C@@H]1NC(=O)[C@@H]2CCCN2C(=O)[C@H](CC(C)C)NC(=O)[C@H](CC(C)C)NC(=O)CNC(=O)[C@@H](NC(=O)[C@@H](NC(=O)[C@H](CC(=O)O)NC(=O)CNC(=O)[C@@H](NC(=O)[C@H](C)NC(=O)CNC(=O)[C@H](CCCCN)NC(=O)[C@H](CC(C)C)NC(=O)[C@H](CC(C)C)NC(=O)[C@H](CCCCN)NC(=O)CNC(=O)[C@@H](NC(=O)[C@@H](N)CC(C)C)C(C)C)C(C)C)C(C)C)CSSC[C@@H](C(=O)O)NC1=O,,"RNA-seq, refers to: Gm13889 mRNA","mouse traumatic brain injury, frontal cortex and hippocampus",dose not given,reference: TBI plus compound vs TBI,log2 fold change,-1.41
